Measured values of several laboratories.
Each numbered part is a random draw from the data of one study; scales do not carry over between parts.

Block 1 — method: RNA Bind-n-Seq; form: RNA; matrix: in vitro; concentration: 365 nM; baseline: no-protein control; direction: higher = stronger binding; quantity: RBNS enrichment (R)
Target: RNA binding protein fox-1 homolog 2, RRM domain, GST-SBP tag (RBFOX2, Homo sapiens, UniProt O43251-10, residues 100-194)
Setting: natural RNA segment, single round, ends assumed
Constant ends, left off below: GGGAGUUCUACAGUCCGACGAUC … UGGAAUUCUCGGGUGCCAA
Target sequence (chain): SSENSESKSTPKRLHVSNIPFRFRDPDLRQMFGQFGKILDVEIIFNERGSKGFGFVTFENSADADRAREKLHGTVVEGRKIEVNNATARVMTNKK
Sequence = AUAAAUAAGGAUCACACUGUAUUAGGGGUUAUGGCAACAUUAUUGAAUUUUUUAUGUACAUAAAGCCAUAUGUUUAGGGUGGUUUCUAUCUGUCUUGUUUUUCACUUAUA; result = 0.836
Sequence = AUUGAGCCCCUGAGGACAGGGGCAUCUCUGGGCUGAGCCUACUGUCUCCUUCCCACUGUCCUUUCUCCAGGCCCUCAGAUGGCACAUUAGGGUGGGCGUGCUGCGGGUGG; result = 0.495
Sequence = UAAUGUCAUGUUGCUUGUCGCUUUCUCAGUGUGUGUGUGUGGUCCAUGCCCACUGCUGGUGCCAGGGUGGGUGUCCAUGUGCACCCGGCCUGGAUGCCAGCUGUGUCCUU; result = 0.336
Sequence = UUGAAGCAAAUACAAUUCACAGCACAGUACACACAAAAACCCUGGCAUAAGACGGGGAGGUUCUUCUUAUUUUGUGAGCCGGUUGCCCUGGAAACGGAUAACAAAGGGCA; result = 0.398
Sequence = AGAAAUGCUGUAUUUAUUGAUAACAUUGGCUAGGAGACUGAUGGACUGGCACACUUUCCUGUUUUAAUUUAGAGCCUUUGAUUAUUCCAUAGAGACAACCUGUGUGCUUU; result = 0.592
Sequence = CAUUUUCACUAAGAGUUUAAAAGCUAUUGUAUUAUUAAAAAGUCUUUACAAUGCUUGUUUCAAAGAACCAACAGAAAAAAAAGCUAAGAAAACUGAGAACUAACAUUAAA; result = 0.404
Sequence = CACUACCCUCUCCUACCAUCUUCCUGGGAAUGUGGCCUACCACUACCAGAGCUCCUGCCUACCAAGACUGGAUGAAAGAAGCAGCUUUGAUGGGGUCUUUCCAUCCUCAC; result = 0.647
Sequence = GGAUACAAGAUGCUGAGAGGGCUGCAGGGCCAUUCCAUCAAGCCCCAGGGUGAAAGGGCUGGCAUGGCAUCGCUCAUUUUAUUGCUCUGCAGGUAAACUGUAUAGGUAUA; result = 0.516
Sequence = GAACACAGCGGCUGCCAGUCUCCUGGUCCCGAGAGGAGGUGGGGCCUGGCCCUGGCUCCCUCCAACCAGCUGCUCCUGGGACACAGGUGCUCCUGCUUCGGCUCUGUUUC; result = 0.317
Sequence = CUUACACAUUUGAGGACCGAAUCAACUUUGCCGUGUUCCCAUCCCUGCAGGGGGGCCCCCACAAUCAUGCCAUUGCUGCAGUAGCUGUGGCCCUAAAGCAGGCCUGCACC; result = 0.209
Sequence = GGGUUGCCAGGGAUAAAGAGCUUCCUCACUGGAUGGGACCCGCCUUUCUGUGUUGUGUUCUGCCCUGUGCUCUUCUCUCUACGUUAACGUUUCCUGUAGUAUGUUUCUUC; result = 0.385
Sequence = UGAGAAUGCAUAUAUAUAUUUUUUAACAUUUCCUAUAUAUCUAAGGUACCAAAGCACUGAGUCUAAUUUACCUAUUAAGGGAGACUCUUUAAAAUCAACUUUAUAACUAA; result = 0.817

Block 2 — method: RNA Bind-n-Seq; form: RNA; matrix: in vitro; concentration: not given; baseline: input RNA pool; direction: higher = stronger binding; quantity: bound/input enrichment
Target: RING finger protein unkempt homolog, zinc fingers 1-6, GST-SBP tag (UNK, Homo sapiens, UniProt Q9C0B0, residues 30-357)
Setting: RNA with constant flanks, human and mouse sites, ends assumed
Constant ends, left off below: GGGAGUUCUACAGUCCGACGAUC … CAACAGAGGAUUGAGCAUCA
Residues (chain): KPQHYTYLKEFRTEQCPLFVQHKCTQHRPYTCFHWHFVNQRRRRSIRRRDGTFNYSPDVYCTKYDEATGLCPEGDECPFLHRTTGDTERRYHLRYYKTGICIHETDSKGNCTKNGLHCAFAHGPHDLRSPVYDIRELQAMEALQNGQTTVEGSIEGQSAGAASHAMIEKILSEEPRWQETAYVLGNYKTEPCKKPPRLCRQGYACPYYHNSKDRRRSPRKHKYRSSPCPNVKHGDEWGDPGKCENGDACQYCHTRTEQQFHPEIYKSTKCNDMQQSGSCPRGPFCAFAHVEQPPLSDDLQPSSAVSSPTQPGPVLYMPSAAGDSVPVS
Sequence = GCUGAAGAUUUAAUUUGUGAUACCUUUGUAUGUAUGAGACACAUUCCAAAGAGCUCUAACUAUGAUAGGUCCUGAUUACUAAAGAAGCUUCUUUACUGGCCUCAAUUUCUAGCUUUCAUG; result = 0.163 ratio
Sequence = GUUCGCUUGUAUCGUAAAGCAUUAGAAGUCUUCCCAGAGUUUGCUGCUGCCCAUUCAAAUUUAGCAAGUGUACUGCAGCAGCAGGGAAAACUGCAGGAAGCUCUGAUGCAUUAUAAGGAG; result = 0.258 ratio
Sequence = AACUCAGGAACUAUGGCAAGGAACUUUCCCCAGAUCAAAUUCUAUUAACGCUGAGAUACAAGUCAUCCAUGCACAGCCACUAUCAUACCCUUUAUUCUCACUGAAAGGCAGAACUCAGAA; result = 0.257 ratio
Sequence = AAAGCAGACAUUUAUUACAGUCCAUUCCACAAGAGGCAUCCAAACCAUGACCAAGGCAUGUGGCAUUUGGGGGAGGCAGGUUUGGAAGGCACAGAAAGAAGGAAGGAAGGAGCUGCUGCC; result = 0.344 ratio
Sequence = AAGGAUUCUCUGCCCCGCUUUGUGCGCUCUGAAUUUUAUAAGGAGCUAAUCAAGUAGUCAUCUGGUCAGGCUUCCAAAAGUUGCCCUGUGAGUUGAGUUACAUCCUUUGUAGCAACACAG; result = 0.394 ratio
Sequence = AAAUCCUCAUUGACGAUUCAAUUUGUUGAAGGCCAAUUUGUGGACUCCUACGAUCCAACCAUAGAAAACACUUUUACAAAGUUGAUCACAGUAAAUGGACAAGAAUAUCAUCUUCAACUU; result = 0.342 ratio
Sequence = CGUCCGGAGCGGACGGAGCGGACCUGGCUGGCCGCGCAUCGCCCUCGCCUGGGGCCAUGAAGUAGCUGCGGCCGCCAGCCUUGCCCUCCCGCUGGCCCGGCCACUGCCCGCUGCCCCGGU; result = 0.169 ratio
Sequence = UCUGUUCGGAACCCCAGAGCACGAGUAGUAGUCUUAAGAGUAAAGCUUUCCAGUUUGAAUUUAGAUGAUCACGCAAAGAAGAAAUUAAUUAAACUUGUAGGAGAGCGAUACUGCAAGACC; result = 0.913 ratio
Sequence = AUGCGUGCUGCUGGAAGGCUCUCCGUUUCUCCGAGAACCGGGAAGGACGUUGGUGUAGAGGACAUUGGCUACCAUGAGUUCCGGUGCGCUGUUGCCCAAACCACAGAUGCGUGGUCUUCU; result = 0.0579 ratio
Sequence = UACAUCCAGAGCUUCCGGGACCGGCAGACUGGGAGCUCUCUGAGUUCCUUCAUGGCCUCCCCUACAGACACGGACUAUGAGUAUGGGUCCCGGGGACCACUGACAGCCUGCUCGGGACCC; result = 0.258 ratio
Sequence = UUUCAUCUUGAGGUGGCCAAUAUGGGAUGUGGAAUUUUUACAUGAGUUACACAUGUUUGGCAUAGUACUUUUGGUACAUUGUGGCUUCAGAAGGGCCAGUGUUAAAACUGCUUCCAUGUC; result = 0.11 ratio

Block 3 — method: universal PBM; form: double-stranded DNA, one strand shown; matrix: in vitro; concentration: 600 nM; direction: higher = stronger binding; quantity: E-score
Target: Sal-like protein 4, full length isoform A (SALL4, Homo sapiens, UniProt Q9UJQ4, residues 1-1053)
Sequence of UniProt Q9UJQ4 (whole entry, looked up): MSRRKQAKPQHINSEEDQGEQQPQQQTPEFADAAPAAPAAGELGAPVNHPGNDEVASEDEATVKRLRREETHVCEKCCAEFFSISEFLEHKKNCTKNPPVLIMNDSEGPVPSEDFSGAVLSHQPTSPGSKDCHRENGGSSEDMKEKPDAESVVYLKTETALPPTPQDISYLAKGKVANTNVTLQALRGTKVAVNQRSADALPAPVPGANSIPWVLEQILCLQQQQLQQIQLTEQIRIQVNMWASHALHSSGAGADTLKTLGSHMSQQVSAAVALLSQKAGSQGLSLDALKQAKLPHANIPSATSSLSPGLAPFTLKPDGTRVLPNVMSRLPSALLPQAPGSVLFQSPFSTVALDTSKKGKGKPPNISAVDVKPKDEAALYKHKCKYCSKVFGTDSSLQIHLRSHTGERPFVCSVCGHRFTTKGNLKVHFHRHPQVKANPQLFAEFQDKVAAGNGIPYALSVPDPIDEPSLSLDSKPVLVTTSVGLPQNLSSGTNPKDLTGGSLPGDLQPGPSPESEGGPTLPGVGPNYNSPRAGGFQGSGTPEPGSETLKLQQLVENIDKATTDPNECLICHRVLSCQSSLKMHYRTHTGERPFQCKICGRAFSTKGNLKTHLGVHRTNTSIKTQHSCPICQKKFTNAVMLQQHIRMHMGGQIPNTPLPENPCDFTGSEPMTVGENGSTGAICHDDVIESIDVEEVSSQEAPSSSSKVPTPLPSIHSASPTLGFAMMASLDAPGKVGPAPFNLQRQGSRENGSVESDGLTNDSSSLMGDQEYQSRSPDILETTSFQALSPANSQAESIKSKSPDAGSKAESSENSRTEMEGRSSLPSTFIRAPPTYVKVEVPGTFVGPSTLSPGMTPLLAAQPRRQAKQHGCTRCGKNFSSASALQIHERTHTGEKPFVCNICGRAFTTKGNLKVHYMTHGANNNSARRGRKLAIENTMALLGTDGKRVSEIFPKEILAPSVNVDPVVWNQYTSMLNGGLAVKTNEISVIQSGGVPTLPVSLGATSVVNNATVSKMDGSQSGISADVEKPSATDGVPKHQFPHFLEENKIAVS
Setting: 8-mer, flanks averaged, mean of replicates
Sequence = GCCGTATA; result = 0.26
Sequence = AAGGTTCC; result = 0.0315
Sequence = AACCGACG; result = -0.156
Sequence = AATGTCGG; result = 0.0135
Sequence = CTCAATCC; result = 0.00672
Sequence = AACCAGAC; result = -0.0561
Sequence = CTCGAAGA; result = -0.0522
Sequence = CCGAGATC; result = -0.305
Sequence = GCGACGCC; result = -0.361
Sequence = AGGGTCTG; result = -0.302
Sequence = AACTTCGC; result = -0.102
Sequence = ATTAGTGG; result = 0.114
Sequence = GATCCAGC; result = -0.315
Sequence = TCCTACAA; result = 0.141
Sequence = CTACCACC; result = -0.263
Sequence = AGTTGTAG; result = 0.104
Sequence = GAGCAGCC; result = -0.313
Sequence = CGCAACCG; result = -0.214

Block 4 — method: RNA Bind-n-Seq; form: RNA; matrix: in vitro; concentration: 200 nM; setting: whole 134-nt RNA, ends assumed; together with: 150 mM KCl; baseline: input library; direction: higher = stronger binding; quantity: log2 enrichment
Target: Ras GTPase-activating protein-binding protein 1, full length (G3BP1, Homo sapiens, UniProt Q13283)
Sequence of UniProt Q13283 (whole entry, looked up): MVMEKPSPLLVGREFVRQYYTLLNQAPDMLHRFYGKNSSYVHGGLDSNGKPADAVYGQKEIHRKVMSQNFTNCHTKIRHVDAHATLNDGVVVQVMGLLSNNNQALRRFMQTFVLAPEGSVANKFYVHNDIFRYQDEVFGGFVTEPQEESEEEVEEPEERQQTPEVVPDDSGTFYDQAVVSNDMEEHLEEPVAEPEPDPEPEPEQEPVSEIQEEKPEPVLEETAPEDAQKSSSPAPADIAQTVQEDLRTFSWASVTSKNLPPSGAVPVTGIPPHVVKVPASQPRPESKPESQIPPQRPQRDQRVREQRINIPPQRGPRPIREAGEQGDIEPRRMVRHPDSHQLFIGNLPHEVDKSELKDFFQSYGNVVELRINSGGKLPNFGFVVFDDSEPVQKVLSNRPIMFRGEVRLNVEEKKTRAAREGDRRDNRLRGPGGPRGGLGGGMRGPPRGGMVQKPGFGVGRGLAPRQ
Constant ends, left off below: GGGAGUUCUACAGUCCGACGAUC … UGGAAUUCUCGGGUGUCAAGG
Sequence = CCUCAAGUCCUGUGCUACACAUCGUAUGUACCGAAUCGGGUGGGAGGGAGGGAAAGUAUUAUGUUACGCCGUUCGGAUCUGCACUUCCAG; result = 1.34
Sequence = UGGGAGGUGGAUUUUGUUUAUUUUUUUAGCUCAUUUCCAGGGGUGGGAAUUUUUUUUUAAUAUGUGUCAUGAAUAAAGUUGUUUUUGUAA; result = 0.298
Sequence = CAAGUCCUGUGCUACACAUCGUAUGUACCGAAUCGGAAAGGAAAAAGGAAAAAGGAAAGUAUUAUGUUACGCCGUUCGGAUCUGCACUUC; result = -0.964
Sequence = UCCUGUGCUACACAUCGUAUGUACCGAAUCGGGAAAAAAAGGGUUUUUUUGGGAAAGGGAAAGUAUUAUGUUACGCCGUUCGGAUCUGCA; result = -0.523
Sequence = UCAAGUCCUGUGCUACACAUCGUAUGUACCGAAUCGGGAAAGGGUUUGGGAGGGAAAGUAUUAUGUUACGCCGUUCGGAUCUGCACUUCC; result = 1.16
Sequence = AGUCCUGUGCUACACAUCGUAUGUACCGAAUCGGUUUUUUUGGAAAGGAAAAAAAGGAAAGUAUUAUGUUACGCCGUUCGGAUCUGCACU; result = -1.46
Sequence = UCCUGUGCUACACAUCGUAUGUACCGAAUCGGGGAAAGGGGUUUUUUUGGGGUUUGGGGAAAGUAUUAUGUUACGCCGUUCGGAUCUGCA; result = 0.971
Sequence = UCAAGUCCUGUGCUACACAUCGUAUGUACCGAAUCGGAAAGGGAAAGGGGAAAGGAAAGUAUUAUGUUACGCCGUUCGGAUCUGCACUUC; result = -0.802
Sequence = GUCCUGUGCUACACAUCGUAUGUACCGAAUCGGGGCCCCCGGGGCCCCCGGCCCCCGGGAAAGUAUUAUGUUACGCCGUUCGGAUCUGCA; result = -0.728
Sequence = CAAGUCCUGUGCUACACAUCGUAUGUACCGAAUCGGAAAGGUUUUUGGAAAAAGGAAAGUAUUAUGUUACGCCGUUCGGAUCUGCACUUC; result = -1.19
Sequence = UCAAGUCCUGUGCUACACAUCGUAUGUACCGAAUCGGGUGGGAAAAAGGGAGGGAAAGUAUUAUGUUACGCCGUUCGGAUCUGCACUUCC; result = 1.07
Sequence = UAACUUUAGAGGAGGAUCUGAUGGAUAUGGCAGUGGACGUGGUUUUGGGGAUGGCUAUAAUGGGUAUGGAGGAGGACCUGGAGGUGGCAA; result = 0.18
Sequence = ACCAUGCAGGUGGGCAUCUUUGGGAAGUGGGGCAAGGGGGGGAUAGGGAGUGGGGUAACACUUUGGGAACAGGUGGUCCCAGGUCGUUUC; result = 1.32
Sequence = UCCUGUGCUACACAUCGUAUGUACCGAAUCGGGGCCCCCGGGGCCCCCGGGCCCCCGGGAAAGUAUUAUGUUACGCCGUUCGGAUCUGCA; result = -0.493
